Results of several laboratories.
Every numbered part comes from another study and shows a few of its results, in no order. Values joined by “and” are separate records of one study, mostly repeats; a detail may differ.
Chain of UniProt Q9BYP7 (whole entry, looked up): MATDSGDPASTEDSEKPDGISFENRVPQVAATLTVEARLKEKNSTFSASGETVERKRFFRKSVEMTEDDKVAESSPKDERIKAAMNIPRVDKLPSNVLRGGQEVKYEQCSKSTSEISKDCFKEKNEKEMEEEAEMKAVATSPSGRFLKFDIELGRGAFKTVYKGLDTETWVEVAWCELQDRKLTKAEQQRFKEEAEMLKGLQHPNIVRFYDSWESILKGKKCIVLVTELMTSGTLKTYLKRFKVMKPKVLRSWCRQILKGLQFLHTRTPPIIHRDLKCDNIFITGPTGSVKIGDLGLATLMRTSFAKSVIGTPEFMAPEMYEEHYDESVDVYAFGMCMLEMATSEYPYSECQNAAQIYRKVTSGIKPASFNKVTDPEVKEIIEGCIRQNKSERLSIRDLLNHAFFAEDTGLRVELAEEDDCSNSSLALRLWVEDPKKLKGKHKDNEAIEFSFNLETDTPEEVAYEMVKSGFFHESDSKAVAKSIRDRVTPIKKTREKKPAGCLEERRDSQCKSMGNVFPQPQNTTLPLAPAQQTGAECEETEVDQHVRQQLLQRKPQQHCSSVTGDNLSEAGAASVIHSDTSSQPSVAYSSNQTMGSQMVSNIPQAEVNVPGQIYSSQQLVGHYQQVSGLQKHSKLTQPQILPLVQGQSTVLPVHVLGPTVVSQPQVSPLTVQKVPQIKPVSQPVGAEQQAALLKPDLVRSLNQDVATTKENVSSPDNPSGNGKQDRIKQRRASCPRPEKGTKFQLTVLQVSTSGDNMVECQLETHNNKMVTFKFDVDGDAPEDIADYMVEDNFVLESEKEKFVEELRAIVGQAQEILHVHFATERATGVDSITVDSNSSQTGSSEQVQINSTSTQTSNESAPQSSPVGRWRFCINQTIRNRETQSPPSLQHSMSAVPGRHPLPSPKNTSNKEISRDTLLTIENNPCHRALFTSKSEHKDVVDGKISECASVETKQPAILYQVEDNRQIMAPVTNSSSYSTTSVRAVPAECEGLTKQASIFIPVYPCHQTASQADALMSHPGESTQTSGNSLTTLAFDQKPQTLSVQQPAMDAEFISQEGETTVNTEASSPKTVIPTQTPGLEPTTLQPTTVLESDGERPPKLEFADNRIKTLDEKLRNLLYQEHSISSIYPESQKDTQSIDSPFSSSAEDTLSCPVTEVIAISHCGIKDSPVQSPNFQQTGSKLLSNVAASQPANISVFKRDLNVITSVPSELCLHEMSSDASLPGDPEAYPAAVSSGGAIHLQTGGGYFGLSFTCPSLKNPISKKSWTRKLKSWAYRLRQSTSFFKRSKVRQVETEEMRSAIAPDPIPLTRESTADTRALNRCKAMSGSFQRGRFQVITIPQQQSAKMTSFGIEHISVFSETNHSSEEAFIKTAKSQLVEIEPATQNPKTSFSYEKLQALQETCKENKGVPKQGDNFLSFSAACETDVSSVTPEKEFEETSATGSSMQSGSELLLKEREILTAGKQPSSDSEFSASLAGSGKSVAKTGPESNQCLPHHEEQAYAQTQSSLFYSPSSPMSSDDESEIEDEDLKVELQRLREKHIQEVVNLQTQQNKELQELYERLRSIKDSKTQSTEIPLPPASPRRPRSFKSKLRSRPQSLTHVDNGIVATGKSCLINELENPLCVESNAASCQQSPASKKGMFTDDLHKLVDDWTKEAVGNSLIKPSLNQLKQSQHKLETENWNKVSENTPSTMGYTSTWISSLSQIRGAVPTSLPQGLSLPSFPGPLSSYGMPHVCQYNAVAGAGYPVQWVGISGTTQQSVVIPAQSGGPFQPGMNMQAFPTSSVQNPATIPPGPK
Chain of UniProt P42681 (whole entry, looked up): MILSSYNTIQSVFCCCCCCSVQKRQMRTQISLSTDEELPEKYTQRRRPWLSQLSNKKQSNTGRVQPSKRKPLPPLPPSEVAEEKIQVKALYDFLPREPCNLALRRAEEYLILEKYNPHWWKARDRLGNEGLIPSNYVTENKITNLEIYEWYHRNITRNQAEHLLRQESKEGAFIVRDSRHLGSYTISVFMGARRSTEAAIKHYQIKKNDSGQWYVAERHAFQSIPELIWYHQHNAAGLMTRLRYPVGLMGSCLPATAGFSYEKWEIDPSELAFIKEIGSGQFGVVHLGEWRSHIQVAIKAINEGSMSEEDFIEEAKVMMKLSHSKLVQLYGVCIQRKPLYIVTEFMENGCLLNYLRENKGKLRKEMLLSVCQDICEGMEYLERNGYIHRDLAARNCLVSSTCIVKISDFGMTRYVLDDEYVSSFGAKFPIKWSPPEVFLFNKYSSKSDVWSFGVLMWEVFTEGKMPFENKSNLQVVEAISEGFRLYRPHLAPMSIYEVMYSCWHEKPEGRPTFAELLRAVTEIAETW

Block 1
SMILES: CS(=O)(=O)N1CCCC(NC(=O)[C@H](CCC2CCCCC2)NC(=O)c2ccc(CNc3ncnc4c3nnn4-c3ccccc3)cc2)C1 (stereo partly shown)
Tested at: 0.1 µM
| target | effect on | method | remaining binding [%] |
| --- | --- | --- | --- |
| AAK1 (Homo sapiens, UniProt Q2M2I8) | binding |  | 90 |
| EPHA3 (Homo sapiens, UniProt P29320) | cell-free assay | competition with immobilised ligand | 75 |
| ACVR2A (Homo sapiens, UniProt P27037) | cell-free assay | competition with immobilised ligand | 68 |
| TSSK3 (Homo sapiens, UniProt Q96PN8) | cell-free assay | competition with immobilised ligand | 100 |
| PIK3CA (Homo sapiens, UniProt P42336, E545A) | cell-free assay | competition with immobilised ligand | 100 |
| WNK3 (Homo sapiens, UniProt Q9BYP7) | cell-free assay | competition with immobilised ligand | 85 |

Block 2
Target: DNA polymerase theta, ATPase domain (POLQ, Homo sapiens, UniProt O75417)
Chain of UniProt O75417 (whole entry, unmodified, looked up): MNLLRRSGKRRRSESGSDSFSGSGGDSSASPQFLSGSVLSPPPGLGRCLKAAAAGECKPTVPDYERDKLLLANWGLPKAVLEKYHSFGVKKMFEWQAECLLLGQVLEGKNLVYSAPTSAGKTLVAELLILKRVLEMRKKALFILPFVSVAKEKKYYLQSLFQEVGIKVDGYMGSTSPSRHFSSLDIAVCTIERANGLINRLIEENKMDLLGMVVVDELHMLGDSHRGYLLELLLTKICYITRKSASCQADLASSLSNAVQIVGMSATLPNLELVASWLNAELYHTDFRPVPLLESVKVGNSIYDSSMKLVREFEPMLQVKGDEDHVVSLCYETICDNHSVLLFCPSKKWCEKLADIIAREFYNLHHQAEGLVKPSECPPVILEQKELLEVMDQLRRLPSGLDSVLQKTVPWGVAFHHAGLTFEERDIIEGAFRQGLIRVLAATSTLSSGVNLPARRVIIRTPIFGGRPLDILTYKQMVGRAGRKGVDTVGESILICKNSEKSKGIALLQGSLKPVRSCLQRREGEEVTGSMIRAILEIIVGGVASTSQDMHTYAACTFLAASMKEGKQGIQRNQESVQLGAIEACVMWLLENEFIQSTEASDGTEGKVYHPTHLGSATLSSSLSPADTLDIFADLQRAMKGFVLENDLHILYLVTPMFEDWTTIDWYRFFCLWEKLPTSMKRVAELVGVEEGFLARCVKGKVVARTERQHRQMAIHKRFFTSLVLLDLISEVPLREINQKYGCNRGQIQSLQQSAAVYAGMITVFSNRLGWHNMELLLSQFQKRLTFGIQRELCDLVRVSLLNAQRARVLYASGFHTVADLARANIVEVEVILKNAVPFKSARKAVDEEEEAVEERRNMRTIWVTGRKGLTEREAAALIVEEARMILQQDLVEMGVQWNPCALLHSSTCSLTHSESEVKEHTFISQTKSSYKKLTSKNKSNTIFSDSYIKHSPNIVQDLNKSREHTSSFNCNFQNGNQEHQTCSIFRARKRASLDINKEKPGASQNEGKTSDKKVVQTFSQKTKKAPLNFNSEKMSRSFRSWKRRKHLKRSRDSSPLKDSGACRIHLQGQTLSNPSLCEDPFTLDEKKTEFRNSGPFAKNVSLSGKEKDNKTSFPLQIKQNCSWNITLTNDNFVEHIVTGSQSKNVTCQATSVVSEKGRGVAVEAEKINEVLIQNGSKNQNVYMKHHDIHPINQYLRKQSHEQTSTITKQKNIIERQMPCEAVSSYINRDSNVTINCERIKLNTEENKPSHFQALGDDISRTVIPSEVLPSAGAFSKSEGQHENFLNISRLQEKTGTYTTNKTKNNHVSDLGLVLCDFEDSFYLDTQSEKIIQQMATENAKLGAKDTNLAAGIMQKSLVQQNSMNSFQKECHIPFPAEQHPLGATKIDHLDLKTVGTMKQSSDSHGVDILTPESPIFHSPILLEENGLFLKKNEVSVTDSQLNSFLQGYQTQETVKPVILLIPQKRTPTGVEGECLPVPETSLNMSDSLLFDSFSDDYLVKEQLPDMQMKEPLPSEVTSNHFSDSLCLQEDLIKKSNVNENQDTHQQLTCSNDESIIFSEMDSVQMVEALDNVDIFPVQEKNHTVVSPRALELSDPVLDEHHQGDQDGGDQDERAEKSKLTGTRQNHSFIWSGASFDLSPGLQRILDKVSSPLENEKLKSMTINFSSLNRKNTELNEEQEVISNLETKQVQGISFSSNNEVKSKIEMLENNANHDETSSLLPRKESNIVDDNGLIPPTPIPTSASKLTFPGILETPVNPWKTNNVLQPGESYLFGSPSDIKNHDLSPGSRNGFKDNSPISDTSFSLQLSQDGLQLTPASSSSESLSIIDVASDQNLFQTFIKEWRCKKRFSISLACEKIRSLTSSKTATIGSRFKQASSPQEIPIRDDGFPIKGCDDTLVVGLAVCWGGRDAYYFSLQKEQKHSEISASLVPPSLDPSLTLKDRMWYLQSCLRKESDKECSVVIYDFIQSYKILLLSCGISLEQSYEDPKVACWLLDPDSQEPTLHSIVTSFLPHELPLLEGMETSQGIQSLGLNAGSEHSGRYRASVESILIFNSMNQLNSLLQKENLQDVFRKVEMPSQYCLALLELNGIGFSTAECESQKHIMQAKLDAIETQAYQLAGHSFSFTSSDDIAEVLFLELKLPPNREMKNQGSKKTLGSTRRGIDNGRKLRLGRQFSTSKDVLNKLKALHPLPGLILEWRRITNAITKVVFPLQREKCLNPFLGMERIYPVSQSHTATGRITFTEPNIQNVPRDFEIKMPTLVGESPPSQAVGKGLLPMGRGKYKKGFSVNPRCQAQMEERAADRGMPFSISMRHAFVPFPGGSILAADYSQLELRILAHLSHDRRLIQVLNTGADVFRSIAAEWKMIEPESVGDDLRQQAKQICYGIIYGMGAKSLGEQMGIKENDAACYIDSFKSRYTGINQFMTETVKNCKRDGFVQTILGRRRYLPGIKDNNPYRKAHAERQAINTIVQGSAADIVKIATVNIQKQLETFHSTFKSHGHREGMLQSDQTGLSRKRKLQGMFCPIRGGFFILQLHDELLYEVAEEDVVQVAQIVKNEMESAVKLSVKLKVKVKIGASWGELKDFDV
Effect on: enzyme activity
Mode: inhibitor
Tested at: 77 µM
Baseline: untreated
| Structure (SMILES) | remaining activity |
| --- | --- |
| CN1C(C(=O)Nc2ccccn2)=C(O)c2sccc2S1(=O)=O | 102% and 85.8% |
| COC(=O)CCSCc1ccc(-c2onc(C)c2NC(=O)OC(C)c2ccccc2Cl)cc1 (stereo not shown) | 93.4% |
| Cn1cc(CNCC2CCN(c3ncc(C(=O)NO)cn3)CC2)c2ccccc21 | 97.9% |
| O=C(O)c1ccc(N2C(=O)/C(=C\c3ccc(-c4ccc([N+](=O)[O-])cc4)o3)C=C2c2ccccc2)cc1 | 81.3% |
| CN1CCOC(c2ccccc2)c2ccccc2C1 (stereo not shown) | 100% |
| O=C(/C=C/c1ccc(O)c(O)c1)c1ccc(O)cc1O | 95.5% |

Block 3
SMILES: Cn1sc(=O)n(Cc2ccccc2)c1=O
Effect on: enzyme activity
Mode: inhibitor
Tested at: 0.5 µM
Baseline: control
| target | remaining activity |
| --- | --- |
| CLK4 (Homo sapiens, UniProt Q9HAZ1) | 99.1% |
| Cyclin-dependent kinase 9, with cyclin K (CDK9, Homo sapiens, UniProt P50750) | 97.2% |
| MAPK11 (Homo sapiens, UniProt Q15759) | 97.2% |
| Cyclin-dependent kinase 1, with cyclin A (CDK1, Homo sapiens, UniProt P06493) | 104% |
| CAMK4 (Homo sapiens, UniProt Q16566) | 93.2% |
| AKT2 (Homo sapiens, UniProt P31751) | 99.2% |
| TXK (Homo sapiens, UniProt P42681) | 99.8% |
| MAPK1 (Homo sapiens, UniProt P28482) | 93.1% |
| MET (Homo sapiens, UniProt P08581) | 64.2% |
| PNCK (Homo sapiens, UniProt Q6P2M8) | 98.7% |
| CLK3 (Homo sapiens, UniProt P49761) | 83% |
| MARK4 (Homo sapiens, UniProt Q96L34) | 85.1% |
| NEK3 (Homo sapiens, UniProt P51956) | 89.3% |

Block 4
SMILES: CN1CCN(C(=O)c2ccc(NC(=O)Nc3ccc(N(C)c4ccnc(Nc5ccc(CS(C)(=O)=O)cc5)n4)cc3)cc2)CC1
Tested at: 1 µM
| target | effect on | method | remaining binding [%] |
| --- | --- | --- | --- |
| STK16 (Homo sapiens, UniProt O75716) | binding |  | 15 |
| TXK (Homo sapiens, UniProt P42681) | binding | competition with immobilised ligand | 15 |
| Aurora kinase C (AURKC, Homo sapiens, UniProt Q9UQB9) | binding | competition with immobilised ligand | 0.2 |
| CDK16 (Homo sapiens, UniProt Q00536) | binding |  | 76 |
| Tyrosine-protein kinase JAK3, JH1 (JAK3, Homo sapiens, UniProt P52333) | cell-free assay | competition with immobilised ligand | 5.4 |
| WNK3 (Homo sapiens, UniProt Q9BYP7) | binding |  | 93 |

A few entries again (block 1):
| target | effect on | method | remaining binding [%] |
| --- | --- | --- | --- |
| TSSK3 (Homo sapiens, UniProt Q96PN8) | cell-free assay | competition with immobilised ligand | 100 |
| AAK1 (Homo sapiens, UniProt Q2M2I8) | binding |  | 90 |
| ACVR2A (Homo sapiens, UniProt P27037) | cell-free assay | competition with immobilised ligand | 68 |
| WNK3 (Homo sapiens, UniProt Q9BYP7) | cell-free assay | competition with immobilised ligand | 85 |
